# Assay results from different studies.
# Compare with care: the assays were run in different laboratories. ± marks the error that the study gave.
Structure (SMILES),system,setting,tissue uptake
CC(C)[C@H](NC(=O)[C@@H]1CCCN1C(=O)[C@H](CCCNC(=N)N)NC(=O)[C@H](CS)NC(=O)[C@H](Cc1c[nH]c2ccccc12)NC(=O)[C@H](CCCNC(=N)N)NC(=O)[C@@H](Cc1ccccc1)NC(=O)[C@H](Cc1c[nH]cn1)NC(=O)[C@H](CCC(=O)O)NC(=O)[C@H](CS)NC(=O)[C@H](CS)NC(=O)CNC(=O)[C@@H]1CC(=O)N[C@@H](CCCNC(=N)N)C(=O)NCC(=O)N[C@@H](CC(=O)O)C(=O)N[C@H](Cc2ccc(O)cc2)C(=O)N1)C(N)=O [technetium-99m labelled],"C57 mouse, female, B16/F1 melanoma, pancreas","intravenous, 0.037 MBq, 24 h",0.31 ± 0.15 %ID/g
CN(C)c1ccc(-c2nc3ccc(OCCCCCN4CCN5CCN(CC4)CC(=O)[O][Al]([18F])[O]C(=O)C5)cc3s2)cc1,"ICR mouse, liver","intravenous, 10 min",74.7 ± 5.23 %ID/g
CCCC[C@H](NC(=O)CNC(=O)CNC(=O)CN1CCN(CC(=O)O)CCN(CC(=O)O)CC1)C(=O)N[C@H]1CC(=O)NCCCC[C@@H](C(N)=O)NC(=O)[C@H](Cc2c[nH]c3ccccc23)NC(=O)[C@H](CCCNC(=N)N)NC(=O)[C@@H](Cc2ccccc2)NC(=O)[C@H](Cc2c[nH]cn2)NC1=O [copper-64 labelled],"female C57 mouse, B16/F1 melanoma, spleen","intravenous, 0.037 MBq, 2 h",0.25 ± 0.09 %ID/g
CC(C)[C@H](NC(=O)[C@@H]1CCCN1C(=O)[C@H](CCCNC(=N)N)NC(=O)[C@H](CS)NC(=O)[C@H](Cc1c[nH]c2ccccc12)NC(=O)[C@H](CCCNC(=N)N)NC(=O)[C@@H](Cc1ccccc1)NC(=O)[C@H](Cc1c[nH]cn1)NC(=O)[C@H](CCC(=O)O)NC(=O)[C@H](CS)NC(=O)[C@H](CS)NC(=O)[C@@H]1CC(=O)N[C@@H](CCCNC(=N)N)C(=O)NCC(=O)N[C@@H](CC(=O)O)C(=O)N[C@H](Cc2ccc(O)cc2)C(=O)N1)C(N)=O [technetium-99m labelled],"C57 mouse, female, B16/F1 melanoma, blood","intravenous, 0.037 MBq, 0.5 h",6.1 ± 5.05 %ID/g
CCCC[C@H](NC(=O)CNC(=O)CNC(=O)CN1CCN(CC(=O)O)CCN(CC(=O)O)CCN(CC(=O)O)CC1)C(=O)N[C@H]1CC(=O)NCCCC[C@@H](C(N)=O)NC(=O)[C@H](Cc2c[nH]c3ccccc23)NC(=O)[C@H](CCCNC(=N)N)NC(=O)[C@@H](Cc2ccccc2)NC(=O)[C@H](Cc2c[nH]cn2)NC1=O [copper-64 labelled],"female C57 mouse, B16/F1 melanoma, liver","intravenous, 0.037 MBq, 4 h",9.61 ± 1.34 %ID/g
O=C([O-])CN1CCN(CC(=O)[O-])CCN(CC(=O)NCCc2ccc3c(c2)C2C=CCC2C(c2cc4c(cc2Br)OCO4)N3)CCN(CC(=O)[O-])CC1.[111In+3] (centres unmarked),"mouse, Hec50 endometrial tumour, spleen",2 h post injection,0.26 ± 0.07 %ID/g
CCCC[C@H](NC(=O)CNC(=O)CNC(=O)CN1CCN(CC(=O)O)CCN(CC(=O)O)CCN(CC(=O)O)CC1)C(=O)N[C@H]1CC(=O)NCCCC[C@@H](C(N)=O)NC(=O)[C@H](Cc2c[nH]c3ccccc23)NC(=O)[C@H](CCCNC(=N)N)NC(=O)[C@@H](Cc2ccccc2)NC(=O)[C@H](Cc2c[nH]cn2)NC1=O [lead-203 labelled],"C57 mouse, kidneys","intravenous, 0.056 MBq, 24 h",4.48 ± 1.14 %ID/g
CN1C(=O)[C@@H](Cc2ccc(O)c(I)c2)NC(=O)CNC(=O)[C@H](Cc2ccc3ccccc3c2)NC(=O)[C@H](CCCNC(=N)N)NC(=O)[C@H]1CCCNC(=O)c1ccc(CNC(=O)CN2CCN(CC(=O)O)CCN(CC(=O)O)CCN(CC(=O)O)CC2)cc1 [lutetium-177 labelled],"female CB-17 SCID mouse, Daudi xenograft, spleen","intravenous, 6 h, CXCR4 blocking, together with: AMD3100 2 mg/kg coinjected",0.64 ± 0.55 %ID/g

# Excerpt of the above:
Structure (SMILES),system,setting,tissue uptake
CN(C)c1ccc(-c2nc3ccc(OCCCCCN4CCN5CCN(CC4)CC(=O)[O][Al]([18F])[O]C(=O)C5)cc3s2)cc1,"ICR mouse, liver","intravenous, 10 min",74.7 ± 5.23 %ID/g
